Measured values of several laboratories.
Lines come from different studies, so protocols differ. Numbers after ± are the reported error. In brackets after ≈: the same amount, converted by molar mass.
UniProt P50052, sequence (whole entry, unmodified, looked up): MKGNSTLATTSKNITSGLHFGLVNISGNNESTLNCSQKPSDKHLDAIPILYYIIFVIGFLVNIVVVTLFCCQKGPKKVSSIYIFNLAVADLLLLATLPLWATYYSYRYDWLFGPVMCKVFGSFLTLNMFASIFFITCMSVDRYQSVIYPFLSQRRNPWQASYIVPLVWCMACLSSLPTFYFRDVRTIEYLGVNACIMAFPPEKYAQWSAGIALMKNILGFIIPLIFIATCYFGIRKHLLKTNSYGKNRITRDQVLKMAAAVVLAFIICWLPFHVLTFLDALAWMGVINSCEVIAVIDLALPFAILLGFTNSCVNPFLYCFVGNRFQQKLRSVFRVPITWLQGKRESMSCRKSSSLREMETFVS
UniProt P47872, sequence (whole entry, looked up): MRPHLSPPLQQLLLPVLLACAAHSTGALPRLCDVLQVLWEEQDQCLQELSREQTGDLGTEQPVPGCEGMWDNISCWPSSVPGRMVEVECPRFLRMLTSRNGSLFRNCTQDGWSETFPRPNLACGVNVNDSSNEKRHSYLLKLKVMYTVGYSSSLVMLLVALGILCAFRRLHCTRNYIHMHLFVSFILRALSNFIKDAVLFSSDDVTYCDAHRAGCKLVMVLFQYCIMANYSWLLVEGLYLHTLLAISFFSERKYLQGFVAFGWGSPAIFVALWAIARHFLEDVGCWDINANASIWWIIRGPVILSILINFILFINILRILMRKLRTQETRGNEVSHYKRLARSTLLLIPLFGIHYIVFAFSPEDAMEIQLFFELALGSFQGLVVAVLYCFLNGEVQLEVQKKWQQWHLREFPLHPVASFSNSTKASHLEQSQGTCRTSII

`COc1cc(/C=C/c2cc(/C=C/c3ccc(O)c(OC)c3)nc(N)n2)ccc1O` has an inhibition of 90% (Spodoptera frugiperda; cell growth or viability, MTT; Sf9; 100 µM, 72 h).
`Cc1csc(NCc2cc(N(C)C)c3c(c2O)C(=O)C2=C(O)[C@]4(O)C(=O)C(C(N)=O)=C(O)[C@@H](N(C)C)[C@@H]4C[C@@H]2C3)n1` has an MIC of 4 µg/mL (≈ 6.85 µM) (Streptococcus pneumoniae; ATCC 700905, Tet M ribosome protection).
For `COC1C=COC2(C)Oc3c(C)c(O)c4c(c3C2=O)C2=NC3(CCN(CC(C)C)CC3)NC2=C(NC(=O)C(C)=CC=CC(C)C(O)C(C)C(O)C(C)C(OC(=O)Nc2cscn2)C1C)C4=O` (stereo not shown), the IC50 was 0.07 µM (Mycobacteroides abscessus; ATCC 19977; 1:1 CAMHB:human serum).
`C[C@@H](c1ccn(Cc2c(F)cccc2F)n1)[C@](O)(Cn1cnnn1)c1ccc(F)cc1F` gave an MIC of < 0.008 µg/mL (Candida tropicalis; growth, broth microdilution; 2718; 24 h, 30 °C, ≥50% inhibition).
For `CN(C)c1cc(CNCc2ccncc2)c(O)c2c1C[C@H]1C[C@H]3[C@H](N(C)C)C(O)=C(C(N)=O)C(=O)[C@@]3(O)C(O)=C1C2=O`, the MIC was 2 µg/mL (≈ 3.46 µM) (Streptococcus pneumoniae; ATCC 700905, Tet M ribosome protection).
With `CCCCCn1ccc([C@H](C)[C@](O)(Cn2cnnn2)c2ccc(F)cc2F)n1` the MIC was > 4 µg/mL (Candida tropicalis; growth, broth microdilution; 2718; 24 h, 30 °C, ≥50% inhibition).
With `Nc1cc2nc(-c3ccccc3)cn2cn1` the EC50 was > 20 µM (Trypanosoma cruzi; 3T3 host cells, Tulahuen beta-galactosidase; 6 days).
The growth inhibition of `CNC1=C([N+](=O)[O-])C2(C(=O)Nc3ccc([N+](=O)[O-])cc32)C2=C(CCCC2=O)O1` (stereo not shown) is reported as 24.7% (Streptococcus pneumoniae; MTCC 655; 250 µg/mL, 24 h).
`COc1cc(CCC(C)=O)ccc1O` gave an IC50 of > 4 µg/mL (mAb 4-AT4; antibody binding, indirect competitive ELISA; together with: coating antigen hapten 2-OVA).
The MIC of `CC(C)CNCc1cc(N(C)C)c2c(c1O)C(=O)C1=C(O)[C@]3(O)C(=O)C(C(N)=O)=C(O)[C@@H](N(C)C)[C@@H]3C[C@@H]1C2` is reported as 0.25 µg/mL (≈ 0.461 µM) (Streptococcus pneumoniae; ATCC 700905, Tet M ribosome protection).
With `CCCc1nc2ccc(N(Cc3ccco3)C(=O)c3ccccc3)cc2c(=O)n1Cc1ccc(-c2ccccc2-c2nnn[nH]2)cc1` the Ki was 0.00269 µM (AGTR2 (Homo sapiens, UniProt P50052, T178A); ligand displacement, radioligand; cell membranes).
For `C=C(C)[C@@H]1CC[C@]2(C(=O)n3ccnc3)CC[C@]3(C)[C@H](CC[C@@H]4[C@@]5(C)CCCNC(C)(C)[C@@H]5CC[C@]43C)[C@@H]12`, the selectivity index was < 5 (Human cytomegalovirus; HFF, AD169; relative to: CC50 over EC50).
With `COc1ccc(Nc2c(C#N)cnc3ccc(Cl)cc23)cc1` the inhibition was 64% (Trypanosoma cruzi; intracellular amastigote growth; mouse cardiomyocytes, Y, amastigote; 10 µM, 72 h).
The MIC of `CN(C)c1cc(CN)c(O)c2c1C[C@H]1C[C@H]3[C@H](N(C)C)C(O)=C(C(N)=O)C(=O)[C@@]3(O)C(O)=C1C2=O` is reported as 2 µg/mL (≈ 4.11 µM) (Streptococcus pneumoniae; microbial growth, broth dilution).
For `CC1(CCCCCCCCCCOCCCOP(=O)(O)CO[C@H](CO)Cn2ccc(N)nc2=O)COC1`, the selectivity index was 48 (JC polyomavirus; qPCR; COS-7, MAD-4; relative to: CC50 over EC50).
The selectivity index of `COc1ccc(-n2nc3c(=O)n(-c4cccc(C(=O)NC(C)C)c4)nc(C)c3c2C)cc1` is reported as 2.9 (Zika virus; Vero, MR766; relative to: CC50 over EC50).
`NC(=O)c1ccc(-c2cn([C@@H]3O[C@H](CO)[C@@H](O)[C@H]3O)c3ncnc(N)c23)cc1` has an EC50 of 27.4 ± 0.49 µM (Trichomonas vaginalis; resorufin; G3, metronidazole-sensitive; 24 h + 2 h, 2% O2).
`Cc1ccc(-c2nc3ccc(C)cn3c2CN2CCN(c3cccc(C(F)(F)F)c3)CC2)cc1` gave an EC50 of 1.5 µM (Trypanosoma cruzi; 3T3 host cells, Tulahuen beta-galactosidase; 6 days).
Under “geometric mean MIC”, `CC[C@H](C)[C@H](NC(=O)[C@H](CCCN)NC(=O)[C@H](CC(N)=O)NC(=O)[C@H](CC(C)C)NC(=O)[C@H](Cc1ccccc1)NC(=O)[C@H](CCCN)NC(=O)[C@H](CCCCNC(=N)N)NC(=O)[C@H](CC(C)C)NC(=O)[C@H](CC(C)C)NC(=O)[C@H](CCCN)NC(=O)[C@H](CCCCNC(=N)N)NC(=O)[C@H](CC(C)C)NC(=O)CNC(C)=O)C(=O)N[C@@H](CCCN)C(=O)N[C@@H](CCCCNC(=N)N)C(N)=O` is recorded as 6.25 µM (Gram-negative bacteria).
`CCCC[C@H](NC(=O)CCCCCCCNC(=O)CN1CCN(CC(=O)O)CCN(CC(=O)O)CC1)C(=O)N[C@H]1CC(=O)NCCCC[C@@H](C(N)=O)NC(=O)[C@H](Cc2c[nH]c3ccccc23)NC(=O)[C@H](CCCNC(=N)N)NC(=O)[C@@H](Cc2ccccc2)NC(=O)[C@H](Cc2c[nH]cn2)NC1=O` [copper-64 labelled] gave a tissue uptake of 0.08 ± 0.14 %ID/g (C57 mice, bone; intravenous, 0.37 MBq, 24 h).
`CN[C@H](CC(C)C)C(=O)N[C@H]1C(=O)N[C@@H](CC(N)=O)C(=O)N[C@H]2C(=O)N[C@H]3C(=O)N[C@H](C(=O)N[C@H](C(=O)O)c4cc(O)cc(O)c4-c4cc3ccc4O)[C@H](O)c3ccc(c(Cl)c3)Oc3cc2cc(c3O[C@@H]2O[C@H](CO)[C@@H](O)[C@H](O)[C@H]2O[C@H]2C[C@](C)(NCc3ccc(C(=O)OCCCCCCN(Cc4ccccn4)Cc4ccccn4)cc3)[C@H](O)[C@H](C)O2)Oc2ccc(cc2Cl)[C@H]1O` has a biofilm thickness of 8.3 µm (Staphylococcus aureus; mature biofilm, confocal microscopy; ATCC 33591 MRSA; 20 µM, 24 h).
`CCCCC/C=C/C(=O)CCc1ccc(O)c(OC)c1` has an IC50 of 0.00499 µg/mL (mAb 3-LD3; antibody binding, indirect competitive ELISA; together with: coating antigen hapten 3-OVA).
`C=C(C)[C@@H]1CC[C@]2(C(=O)N3CCN(C)CC3)CC[C@]3(C)[C@H](CC[C@@H]4[C@@]5(C)CCCNC(C)(C)[C@@H]5CC[C@]43C)[C@@H]12`: antiviral activity “inactive” (Human cytomegalovirus; cytopathic effect; HFF, AD169; concentration not given).
For `CN(C)c1cc(CN2CCCC2)c(O)c2c1C[C@H]1C[C@H]3[C@H](N(C)C)C(O)=C(C(N)=O)C(=O)[C@@]3(O)C(O)=C1C2=O`, the MIC was 0.25 µg/mL (≈ 0.462 µM) (Streptococcus pneumoniae; ATCC 700905, Tet M ribosome protection).
With `CCCCn1ccc([C@H](C)[C@](O)(Cn2cnnn2)c2ccc(F)cc2F)n1` the MIC was 0.0313 µg/mL (≈ 0.0832 µM) (Candida tropicalis; growth, broth microdilution; 2718; 24 h, 30 °C, ≥50% inhibition).
For `Cc1ccc2nc(-c3ccccc3)c(CN(C)C)n2c1`, activity read “inactive” (Trypanosoma cruzi; parasite growth; Tulahuen beta-galactosidase; concentration not given).
With `NS(=O)(=O)Nc1ncnc(OCCOc2ncc(Br)cn2)c1-c1ccc(Br)cc1` the Vmax was 1.8 fold (measured: compound formation; Beagle dog female, liver microsomes; 500 mg/kg, 4 weeks; relative to: vehicle).
For `Nc1ncnc2c1c(-c1ccc(Cl)c(C(F)(F)F)c1)cn2[C@@H]1O[C@H](CO)[C@@H](O)[C@H]1O`, the EC50 was 12.7 ± 0.47 µM (Trichomonas vaginalis; resorufin; G3, metronidazole-sensitive; 24 h + 2 h, 2% O2).
For `O=C(c1cc([N+](=O)[O-])ccc1Cl)N1CCN(c2cccc(Cl)c2)CC1`, the IC50 was > 200 µM (Saccharomyces cerevisiae; cell growth; wild type).
The IC50 of `CCCCCc1ccc2c(c1O)C(c1ccc(OC)c(OC)c1)OC2=O` (stereo not shown) is reported as 19.9 µM (Naegleria fowleri; parasite growth, resazurin; ATCC30808; 48 h).
`CN(C)c1cc(CNC2CCCC2)c(O)c2c1C[C@H]1C[C@H]3[C@H](N(C)C)C(O)=C(C(N)=O)C(=O)[C@@]3(O)C(O)=C1C2=O` gave an MIC of < 0.06 µg/mL (Streptococcus pneumoniae; microbial growth, broth dilution).
With `COc1ccc(C2OC(=O)c3ccc(-c4ccccc4)c(O)c32)c(OC)c1OC` (stereo not shown) the IC50 was 17.4 µM (Naegleria fowleri; parasite growth, resazurin; ATCC30808; 48 h).
The MIC of `CNCc1cc(N(C)C)c2c(c1O)C(=O)C1=C(O)[C@]3(O)C(=O)C(C(N)=O)=C(O)[C@@H](N(C)C)[C@@H]3C[C@@H]1C2` is reported as 2 µg/mL (≈ 4 µM) (Streptococcus pneumoniae; ATCC 700905, Tet M ribosome protection).
`CC1(C)NCCC[C@]2(C)[C@H]3C=CC4=C5C[C@@](C)(CO)CC[C@]5(C)CC[C@@]4(C)[C@]3(C)CC[C@@H]12` — result for antiviral activity: “inactive” (Human cytomegalovirus; cytopathic effect; HFF, AD169; concentration not given).
`O=C(CSc1nc(-c2ccccc2)cc(C(F)(F)F)n1)Nc1cccc(Cl)c1Cl` gave an EC50 of 6.4 ± 3.3 µM (Secretin receptor (SCTR, Homo sapiens, UniProt P47872); increase of tracer binding, TR-FRET; HEK293 membranes; together with: Fluo-Sec 6 nM).
`Cc1ccc(-c2nc3ccc(C)cn3c2CN2CCN(c3ccc(F)cc3)CC2)cc1` gave an EC50 of 1 µM (Trypanosoma cruzi; 3T3 host cells, Tulahuen beta-galactosidase; 6 days).
For `Cc1ccc(OCCn2c(=S)[nH]c3ccccc32)c(C(C)C)c1`, inhibition read “inhibited” (Saccharomyces cerevisiae; reporter gene, measured: Rlm1-lacZ; up to 20 µM, together with: Calcofluor white).

Excerpt of the above:
The MIC of `CN(C)c1cc(CN)c(O)c2c1C[C@H]1C[C@H]3[C@H](N(C)C)C(O)=C(C(N)=O)C(=O)[C@@]3(O)C(O)=C1C2=O` is reported as 2 µg/mL (≈ 4.11 µM) (Streptococcus pneumoniae; microbial growth, broth dilution).
For `CC1(CCCCCCCCCCOCCCOP(=O)(O)CO[C@H](CO)Cn2ccc(N)nc2=O)COC1`, the selectivity index was 48 (JC polyomavirus; qPCR; COS-7, MAD-4; relative to: CC50 over EC50).
The selectivity index of `COc1ccc(-n2nc3c(=O)n(-c4cccc(C(=O)NC(C)C)c4)nc(C)c3c2C)cc1` is reported as 2.9 (Zika virus; Vero, MR766; relative to: CC50 over EC50).
